Assay results pooled from the literature.
Numbered parts are unrelated; each lists some results of a single study. Substitutions count along the parent as printed.

Set 1 — method: RNA Bind-n-Seq; molecule type: RNA; matrix: in vitro; tested at: 100 nM; notes: RNA with constant flanks, ends assumed; reference: input RNA pool; reading: higher = stronger binding
Target: RING finger protein unkempt homolog, zinc fingers 1-6, SBP tag (UNK, Homo sapiens, UniProt Q9C0B0, residues 30-357)
Sequence of UniProt Q9C0B0 (30-357, looked up): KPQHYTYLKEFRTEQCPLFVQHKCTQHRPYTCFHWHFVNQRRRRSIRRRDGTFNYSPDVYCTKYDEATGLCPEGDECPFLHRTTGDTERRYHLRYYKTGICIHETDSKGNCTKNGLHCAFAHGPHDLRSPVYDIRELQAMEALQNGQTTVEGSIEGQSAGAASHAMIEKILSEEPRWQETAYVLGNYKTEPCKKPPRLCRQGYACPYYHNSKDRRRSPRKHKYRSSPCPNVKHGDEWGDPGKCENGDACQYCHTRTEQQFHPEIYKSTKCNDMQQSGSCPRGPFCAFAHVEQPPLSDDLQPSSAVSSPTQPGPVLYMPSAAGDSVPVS
Oligonucleotide | bound/input enrichment [ratio]
GGGAGUUCUACAGUCCGACGAUCCCCAUGGCUGCUUUGUGUCACCUCAGUGACUUACAGUCCCCCUUGGCAUUCCGUUGGUACCCGAGCCAGUCAUCCUUAACAAAUCUUUUCACAUUUUAUUUCUUUCACAUGCCGUCAUCUCAACAGAGGAUUGAGCAUCA | 1.8
GGGAGUUCUACAGUCCGACGAUCGUGCAAGGAAAUUAUUCCAACCCGUGAAUUUAUUAACAGUAAGUUAACAGCAAAAGCAAACCGGCAACUUCAAGAUCCUUCCGUAAUCAUGACAGGAAACAUCCCAACAUGGCUUACUGACAACAGAGGAUUGAGCAUCA | 0.369
GGGAGUUCUACAGUCCGACGAUCUUCACCACUCCUGGGUGCAUGAUUGAGGGUGAAGCAUCCACCAGCACUUCAAGGGGUCCACCGUAUUUUUUUUUUUGCUGCCUCAAAGUCCCCAAAGCCUUCGAGCAGAAGUGGCAGCCGCAACAGAGGAUUGAGCAUCA | 0.87

Set 2 — target: CCNA1, cyclin fold, Cln2 fusion (human); method: yeast growth competition, sequencing; matrix: yeast; notes: weak parent motif; reference: not given; reading: higher = stronger binding
Parent: PKMYT1 docking peptide (human); SFEPRNLLSLFED
Substitution | normalised enrichment score
L10C | 0.21
N6Y | 0.188
N6L | 0.129
E3C | 0.197
L7A | 0.386
N6I | 0.326
E3G | -0.146
P4T | 0.327
D13K | 0.0428
F11T | 0.133
S1R | 0.405
N6C | 0.452
S1G | 0.336
R5Q | -0.0708
E3H | 0.287
S9C | 0.0161

Set 3 — target: FOS, bZIP domain (human); method: DHFR protein complementation; matrix: yeast; reference: wild-type JUN-FOS pair; reading: higher = stronger binding
Notes: single substitutions, most at no-binding floor
Parent: JUN, bZIP domain (human); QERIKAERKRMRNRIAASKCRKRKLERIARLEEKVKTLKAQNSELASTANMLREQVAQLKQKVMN; partner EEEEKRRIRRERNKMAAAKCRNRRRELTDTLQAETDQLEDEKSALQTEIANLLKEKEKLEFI
Substitution | binding fitness [natural log]
E32K | -0.0302
S47V | 0.0932
K34H | 0.00914
R53T | -0.757
E44H | -0.186
Q55H | -0.106
T48S | -0.328
T37D | -0.0257
V35I | 0.139
K34P | -1.34
Q55W | -0.629
Q41K | -0.237
A29N | -0.101
T37M | 0.194
N42K | -0.185
E44W | -0.587
M51K | 0.0346
V56W | -1.34
S43E | 0.0737

Set 4 — method: RNA Bind-n-Seq; molecule type: RNA; matrix: in vitro; tested at: 365 nM; reference: no-protein control; reading: higher = stronger binding
Target: RNA binding protein fox-1 homolog 2, RRM domain, GST-SBP tag (RBFOX2, Homo sapiens, UniProt O43251-10, residues 100-194)
Notes: natural RNA segment, single round, ends assumed
Constant ends, left off below: GGGAGUUCUACAGUCCGACGAUC … UGGAAUUCUCGGGUGCCAA
Target sequence (chain): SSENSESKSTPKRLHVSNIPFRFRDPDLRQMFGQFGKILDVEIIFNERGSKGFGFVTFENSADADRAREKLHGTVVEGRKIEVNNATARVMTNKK
Oligonucleotide | RBNS enrichment (R)
CCUGGCCCUGUUCCUGGCAUAUGGCAAUGUACCCCAGGCUCAGGGAUCUCCCUUCCUUGAGGAUGUUCUUGGCAUGGUCCUGCCCUACCUCAUGGGAUGGGCAAUGCACA | 0.544
GAGAGGCAGAAGCUGAAGGUUCUAUAUCCAGUGUGUUUUAUGUCCAGAAUGUAAGAGAGUUGUCUAAGCAGCAGCUGAGAGAGAGCGGAGCCUAUUUCUAGCCACUCCUG | 0.943
GUUUAUCUAGCAAACGUGACAAUAUUUUUAUGUAUAUAAUGAUUCUAAUCUAAGUUAAUUAAUGUGGUAAUGAUGUUAUUAAGUGUGGAAGCAAAUGCAGUAUAUUAAAG | 0.542
UCCCUUGUACCAGAGGGCGGCACCGUGGAAAUUCUGUUUUCCCUGUAGCAUAUUGUGUUGGAUUGCAUUACUGGCAGAGAAAGGACAAGGUGCCAUUCAAGUCCUAGGGU | 1.12
UACUGGUCUUUGCUUUUAGUAAUAAAACAUCAAAUUAGGUUUGGAGGGAACUUUGAUCUUCCUAAGAAUUAAAGUUGCCAAAUUAUUCUGAUUGGUCUUUAAUCUCCUUU | 0.226
CUAAAUCAUACCCCACUCCCCACUCCCAUUUCGAUUCUCCAGCGGCUCCUUUUAGUUUGUUGUCUUGCCCUACUGUGUAGCUCACUGACUGAGAAUAAAGAAUACAGCAA | 3.33
UCACAAUACUAAAGGGAAAAAAUGGAUUCAAAGCUAGGAUUUCAGGGCCCAGCAGUGUUCCUCCAUCAGCAUGUUAGACAACUACACAGUAUGUUGUUAGUUUUGAAAGA | 10.7
GUUGAGGAAGCUGCUCCAGAAGCGCCUCGGAAGGGGAGCUCUCAUCAUGGCGCGUGCUGCUGCGGCAUAUGGACUUUUAAUAAUGUUUUUGAAUUUCGUAUUCUUUCAUU | 0.311

Set 5 — method: DHFR PCA, deep sequencing; matrix: yeast; with: (+)-ABA 2500 µM; reference: wild-type fitted maximum; reading: higher = stronger binding
Target: ABI1, truncated, D143A, DHFR fusion (Arabidopsis thaliana)
Notes: methotrexate growth selection, single substitutions
Parent: PYL1, truncated, DHFR fusion (Arabidopsis thaliana); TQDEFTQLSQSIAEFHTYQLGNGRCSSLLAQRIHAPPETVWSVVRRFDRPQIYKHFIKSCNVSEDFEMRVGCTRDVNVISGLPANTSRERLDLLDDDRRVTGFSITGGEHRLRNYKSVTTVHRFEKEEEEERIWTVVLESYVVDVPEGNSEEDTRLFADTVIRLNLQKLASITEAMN
Substitution | relative binding score
E67L | 95.9%
F5M | 105%
T135I | 48.3%
L28G | 67%
R99A | 94.2%
T101Q | 83.6%
R46Y | 87.1%
V143S | 86.1%
D75N | 96.3%
L156Y | 96%
E38L | 83.6%
D144R | 84%
V62H | 80.5%
I12S | 78.2%
R88A | 91.5%

Set 6 — method: universal PBM; molecule type: double-stranded DNA, one strand shown; matrix: in vitro; tested at: 600 nM; reading: higher = stronger binding
Target: Sal-like protein 4, full length isoform A (SALL4, Homo sapiens, UniProt Q9UJQ4, residues 1-1053)
Sequence of UniProt Q9UJQ4 (whole entry, looked up): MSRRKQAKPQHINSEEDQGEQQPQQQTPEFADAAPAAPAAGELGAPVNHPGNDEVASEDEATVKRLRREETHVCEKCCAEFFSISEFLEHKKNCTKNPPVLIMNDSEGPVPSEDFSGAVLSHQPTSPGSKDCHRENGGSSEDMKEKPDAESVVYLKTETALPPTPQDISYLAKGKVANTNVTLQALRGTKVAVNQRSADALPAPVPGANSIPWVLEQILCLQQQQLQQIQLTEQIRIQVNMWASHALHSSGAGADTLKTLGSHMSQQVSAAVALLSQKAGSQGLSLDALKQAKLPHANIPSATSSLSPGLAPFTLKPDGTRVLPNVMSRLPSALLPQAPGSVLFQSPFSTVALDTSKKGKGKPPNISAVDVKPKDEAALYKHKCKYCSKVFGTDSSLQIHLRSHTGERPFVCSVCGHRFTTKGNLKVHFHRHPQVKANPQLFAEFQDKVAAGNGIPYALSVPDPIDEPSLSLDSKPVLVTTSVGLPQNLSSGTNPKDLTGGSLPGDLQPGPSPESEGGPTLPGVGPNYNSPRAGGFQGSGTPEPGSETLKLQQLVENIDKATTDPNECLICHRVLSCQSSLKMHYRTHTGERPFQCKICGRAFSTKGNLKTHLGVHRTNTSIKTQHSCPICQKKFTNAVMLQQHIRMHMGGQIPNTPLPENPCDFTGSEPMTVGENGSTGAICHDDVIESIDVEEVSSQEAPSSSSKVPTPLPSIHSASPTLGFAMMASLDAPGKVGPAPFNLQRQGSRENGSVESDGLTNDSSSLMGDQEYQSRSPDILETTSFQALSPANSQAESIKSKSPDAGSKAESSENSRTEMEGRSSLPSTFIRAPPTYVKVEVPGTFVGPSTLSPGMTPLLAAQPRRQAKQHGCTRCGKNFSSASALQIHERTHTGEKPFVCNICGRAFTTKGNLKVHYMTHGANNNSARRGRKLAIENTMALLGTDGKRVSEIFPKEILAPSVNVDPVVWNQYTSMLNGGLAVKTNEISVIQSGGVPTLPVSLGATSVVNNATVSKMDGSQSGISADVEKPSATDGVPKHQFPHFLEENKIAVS
Notes: 8-mer, flanks averaged, mean of replicates
Oligonucleotide | E-score
GTACGCTA | -0.0448
ACGATTAT | 0.301
GCATTCCA | -0.0287
CGGATACC | -0.0839
ATATGAGG | 0.164
CTGAAGCA | -0.0136
CTACTCAG | -0.133
TCCTAGCA | -0.0353
CATTGCAC | 0.0863
CCCGGAAA | -0.235
ACAGAAAT | 0.284
GGACTACA | 0.0813
CAACATTC | -0.0981
AATTCAGT | 0.108
CCTCCAAA | -0.079
GCGCCTTA | -0.18
ACAACCGG | -0.119
GCTTGGCA | -0.093
AGTTCAGC | -0.211
AATAGTCC | 0.0197
ACGATTTG | 0.102
AGGTTACC | -0.0388
CCCGAAGG | -0.17
ATCTCCAT | -0.0342

A few entries again (set 2):
Substitution | normalised enrichment score
F11T | 0.133
S1G | 0.336
E3G | -0.146
P4T | 0.327
